Measured values from different studies.
Numbered parts are unrelated; each lists some results of a single study.

Sample 1 — technique: protein-binding microarray; form: double-stranded DNA, one strand shown; medium: in vitro; concentration: 250 nM; setting: 60-bp whole probe; together with: salmon DNA 0.4 mg/ml; baseline: random background probes; direction: higher = stronger binding; measurement: log fluorescence; all sequences stand within: GCCTAGCAC … GTCTTGATTCGCTTGACGCTGCTG
Target: Interferon regulatory factor 7, full length, phosphomimetic (IRF7, Homo sapiens, UniProt Q92985, residues 1-503, S101K/S471D/S472D/S475D/S476D/S477D/S483D/S484D/S487D)
Construct (chain): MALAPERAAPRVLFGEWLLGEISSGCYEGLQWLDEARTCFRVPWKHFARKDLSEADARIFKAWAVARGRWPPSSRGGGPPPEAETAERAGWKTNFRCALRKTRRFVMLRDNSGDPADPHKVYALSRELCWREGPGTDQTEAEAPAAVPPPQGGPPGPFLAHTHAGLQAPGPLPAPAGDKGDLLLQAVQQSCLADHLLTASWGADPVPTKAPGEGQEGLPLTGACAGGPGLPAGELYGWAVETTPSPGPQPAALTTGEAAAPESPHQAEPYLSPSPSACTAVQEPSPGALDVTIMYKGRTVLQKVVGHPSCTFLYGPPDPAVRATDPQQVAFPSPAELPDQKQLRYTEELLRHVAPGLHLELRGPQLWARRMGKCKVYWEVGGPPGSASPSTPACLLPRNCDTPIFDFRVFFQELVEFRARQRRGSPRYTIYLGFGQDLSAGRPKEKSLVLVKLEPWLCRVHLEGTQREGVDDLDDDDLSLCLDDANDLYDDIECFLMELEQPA
TTATATACCTGTATATCTTCGTGCTAG: 0.54 z-score
TTACGTATCGACTATCGGTTAGTGCTA: 0.229 z-score
GACCAACTGAGTATCGAGACGTGCTAG: 0.319 z-score
GACGTACTGAGTATCGAGACGTGCTAG: 0.297 z-score
GACGATCTCAGTCACGAGACGTGCTAG: 0.0979 z-score
GACGGTCTCCTTTTCGTGACGTGCTAG: 1.11 z-score
TCTGTTTTTGCTTTCCTTCAGTGCTAG: 2.19 z-score
TCAATTTCTGTTTTTGCACTGTGCTAG: 1.54 z-score
TTAGGTTTCGGTTCCGATTAGTGCTAG: 12.6 z-score
TTAGGGCTGCTTATCCTTTAGTGCTAG: -0.468 z-score
GAGGAACTGAGTCTCGAGACGTGCTAG: 0.297 z-score
GACGAAATCAGTTTCGAGACGTGCTAG: 4.66 z-score
TTAGAATTGAGACTGGATTAGTGCTAG: 0.00141 z-score
GACGATTTCAGTTTCCAGACGTGCTAG: 1.65 z-score
TCAAGTTTCATTCCTGAACTGTGCTAG: 2.05 z-score
TTAGGTCTCCTTCTCCTGTAGTGCTAG: 0.573 z-score
TTAGGTATCCTACTGCTCTAGTGCTAG: -0.158 z-score
TCAGGACTGACTCTTCAGACTGTGCTA: -0.789 z-score
TCACTTTTCAGTCCCCTACTGTGCTAG: 1.14 z-score
TTAGATCTCAGTTTCGATTCGTGCTAG: 12.1 z-score
TGTGTTTTCATTTTATGACAGTGCTAG: 3.4 z-score
AGGGTCATCCATCTGAACCAGTGCTAG: -0.447 z-score

Sample 2 — technique: RNA Bind-n-Seq; form: RNA; medium: in vitro; concentration: 200 nM; setting: whole 134-nt RNA, ends assumed; together with: 150 mM LiCl; baseline: input library; direction: higher = stronger binding; measurement: log2 enrichment; each molecule: 7-deaza-guanosine replaces G
Target: Fragile X messenger ribonucleoprotein 1, C-terminal low-complexity region (Fmr1, Mus musculus, UniProt P35922)
All sequences stand within: GGGAGUUCUACAGUCCGACGAUC … UGGAAUUCUCGGGUGUCAAGG
GUCCUGUGCUACACAUCGUAUGUACCGAAUCGGGUUUUUGGUUUUUGGGUUUUUGGGGAAAGUAUUAUGUUACGCCGUUCGGAUCUGCAC: -1.17
CCUCAAGUCCUGUGCUACACAUCGUAUGUACCGAAUCGGCGGGGCGGGGCGGAAAGUAUUAUGUUACGCCGUUCGGAUCUGCACUUCCAG: -0.189
AGUCCUGUGCUACACAUCGUAUGUACCGAAUCGGGGAGGGGUUUGGGGAAAAAGGGGAAAGUAUUAUGUUACGCCGUUCGGAUCUGCACU: -0.935
GUCCUGUGCUACACAUCGUAUGUACCGAAUCGGUUUUUGGGGUUUUUGGGGUUUUUGGAAAGUAUUAUGUUACGCCGUUCGGAUCUGCAC: -0.444
GUCCUGUGCUACACAUCGUAUGUACCGAAUCGGGGUUUUUUUGGGGUUUGGGGUGGGGAAAGUAUUAUGUUACGCCGUUCGGAUCUGCAC: -1.02
UCAAGUCCUGUGCUACACAUCGUAUGUACCGAAUCGGAGGAAAAAGGAAAAAGGAAAGUAUUAUGUUACGCCGUUCGGAUCUGCACUUCC: -0.579
UCAAGUCCUGUGCUACACAUCGUAUGUACCGAAUCGGUUUUUUUGGUUUGGAGGAAAGUAUUAUGUUACGCCGUUCGGAUCUGCACUUCC: -1.36
GUCCUGUGCUACACAUCGUAUGUACCGAAUCGGCCCCCGGGGCCCCCGGGGCCCCCGGGAAAGUAUUAUGUUACGCCGUUCGGAUCUGCA: -2.86
GCCACCAUGCCCACCUAGUUUUUGCAUUUUUAGUGGAGGUGUGGUUUCACUGUGUUGGCCAGGCUGGUCUCUUAACUCCUGACCUCAGGU: 0.441
AAGUCCUGUGCUACACAUCGUAUGUACCGAAUCAAACCCCCAAACCCAAAUUUAAAAAAGUAUUAUGUUACGCCGUUCGGAUCUGCACUU: 0.912
GCAGGAAGUAAAAACCAAUGGAAAUGCUUCGGAUAGUGGCAGGGGUGGGGGUUGCUAAGGAAAGGGUGGGAUGGGAGUGGGUAAAGAGUU: 1.61

Sample 3 — technique: universal PBM; form: double-stranded DNA, one strand shown; medium: in vitro; concentration: not given; direction: higher = stronger binding; measurement: E-score
Target: Sal-like protein 4, full length isoform B (SALL4, Homo sapiens, UniProt Q9UJQ4-2, residues 1-616)
Setting: 8-mer, flanks averaged, mean of replicates
AATTCCAC: 0.0428
ACCCCACC: -0.0925
AAAGCTAG: 0.0322
CATTGTGC: 0.11
GGATTGAA: 0.116
CCAGAACA: -0.0766
CGAGAGAG: -0.102
ACAAATCT: 0.215
CAGCGAAA: -0.0526
AAGTGCAA: 0.0751
GGGCGTAA: -0.115
AAGGTATA: 0.285
TTTAAAAA: 0.285
ACAAAGTA: 0.222
CGAATCAG: -0.119
ACACGTGC: -0.163
ACATGTAA: 0.314
CTCGCTAC: -0.178
AGGGCACT: -0.274
GACGTGTA: 0.0171
AGAAACAA: 0.267
AGCTTCAT: 0.0215
AGACCATG: -0.204
ACTTTCTG: 0.0358
AATAAGCT: 0.204

Sample 4 — technique: aptamer microarray, sandwich; form: DNA with 2'F-ANA; medium: in vitro; concentration: 200 nM; together with: Cy3 exosite-II aptamer, 400 nM; direction: higher = stronger binding; measurement: mean fluorescence intensity; sequence: GGTTGGTGTGGTTGG
Target: Prothrombin, mature alpha-thrombin (F2, Homo sapiens, UniProt P00734)
Setting: whole 15-mer aptamer, many near background
2'F-ANA at 3 5 6 7 9 10 11 13 14: 60.8 a.u.
2'F-ANA at 7 10 13 14: 129 a.u.
2'F-ANA at 2 4 5 9 11 13 14: 45 a.u.
2'F-ANA at 2 8 12 14: 221 a.u.
2'F-ANA at 1 2 3 4 7 8 12 13 14 15: 86.6 a.u.
2'F-ANA at 2 3 5 7 8 10 13 14 15: 52.4 a.u.
2'F-ANA at 1 3 4 5 6 8 10 11 12: 47.8 a.u.
2'F-ANA at 3 5 9 11 12 14 15: 57.3 a.u.
2'F-ANA at 1 2 4 6 13: 71.8 a.u.
2'F-ANA at 4 5 6 9 10 12 14: 44.9 a.u.
2'F-ANA at 1 2 3 7 8 11 13 14 15: 79 a.u.
2'F-ANA at 1 6 7 8 10 11: 58 a.u.
2'F-ANA at 5 7 10 11 14 15: 44.3 a.u.
2'F-ANA at 1 2 7 8 9 12 14: 72.1 a.u.
2'F-ANA at 1 3 5 6 9 10 11 12 13 15: 54.5 a.u.
2'F-ANA at 5 7 8 9 12 14: 56.6 a.u.
2'F-ANA at 1 3 5 6 8 9 10 11 12 14: 49.5 a.u.

Sample 5 — technique: RNAcompete; form: RNA; medium: in vitro; concentration: 20 nM; setting: 7-mer, probes averaged, single round; baseline: mean of 7-mers; direction: higher = stronger binding; measurement: 7-mer Z-score
Target: PABPC1L2, full length, GST fusion (mouse, UniProt A0ABA7IW68)
Construct (chain): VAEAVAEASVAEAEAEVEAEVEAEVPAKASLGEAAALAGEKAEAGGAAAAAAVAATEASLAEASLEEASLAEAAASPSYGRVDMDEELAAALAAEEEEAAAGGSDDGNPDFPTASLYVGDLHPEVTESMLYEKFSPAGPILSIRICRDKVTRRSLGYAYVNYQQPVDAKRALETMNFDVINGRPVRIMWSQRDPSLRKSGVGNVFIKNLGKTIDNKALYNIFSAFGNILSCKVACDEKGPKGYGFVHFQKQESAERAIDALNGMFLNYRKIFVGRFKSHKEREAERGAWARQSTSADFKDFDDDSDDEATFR
UGCCUAU: -0.333
AUCUCAC: -0.144
CUUGCCC: -0.412
CGACUAA: 0.046
GCGCUCG: -0.141
UAGGACC: 0.0497
CCCAAAU: -0.0718
GGACGUG: 0.186
ACCAAUA: 0.104
CUUCUAC: -0.2
AGCUUUA: -0.144
CCGCCAU: -0.385
CCGGACU: -0.171
CCUGUGG: -0.3
AUCCAUC: -0.248
AGCAAGU: -0.128
GAAGAGG: 0.343
GUCGGGU: -0.153
AUUGGUA: 0.0225
ACCUUCG: -0.389
CCCUUCA: -0.304

A few entries again (sample 4):
2'F-ANA at 1 3 5 6 9 10 11 12 13 15: 54.5 a.u.
2'F-ANA at 1 2 3 4 7 8 12 13 14 15: 86.6 a.u.
2'F-ANA at 1 6 7 8 10 11: 58 a.u.
2'F-ANA at 4 5 6 9 10 12 14: 44.9 a.u.
2'F-ANA at 1 2 4 6 13: 71.8 a.u.
2'F-ANA at 5 7 10 11 14 15: 44.3 a.u.
2'F-ANA at 7 10 13 14: 129 a.u.
2'F-ANA at 1 3 5 6 8 9 10 11 12 14: 49.5 a.u.
2'F-ANA at 1 2 3 7 8 11 13 14 15: 79 a.u.
2'F-ANA at 5 7 8 9 12 14: 56.6 a.u.
2'F-ANA at 2 8 12 14: 221 a.u.
2'F-ANA at 2 3 5 7 8 10 13 14 15: 52.4 a.u.
2'F-ANA at 2 4 5 9 11 13 14: 45 a.u.
2'F-ANA at 1 2 7 8 9 12 14: 72.1 a.u.
2'F-ANA at 3 5 6 7 9 10 11 13 14: 60.8 a.u.
